Published values from different studies.
A part holds a random share of what one study measured. Positions count from the first letter of the parent shown.

Study 1
Target: RING finger protein unkempt homolog, zinc fingers 1-6, GST-SBP tag (UNK, Homo sapiens, UniProt Q9C0B0, residues 30-357)
Chain of UniProt Q9C0B0 (30-357, looked up): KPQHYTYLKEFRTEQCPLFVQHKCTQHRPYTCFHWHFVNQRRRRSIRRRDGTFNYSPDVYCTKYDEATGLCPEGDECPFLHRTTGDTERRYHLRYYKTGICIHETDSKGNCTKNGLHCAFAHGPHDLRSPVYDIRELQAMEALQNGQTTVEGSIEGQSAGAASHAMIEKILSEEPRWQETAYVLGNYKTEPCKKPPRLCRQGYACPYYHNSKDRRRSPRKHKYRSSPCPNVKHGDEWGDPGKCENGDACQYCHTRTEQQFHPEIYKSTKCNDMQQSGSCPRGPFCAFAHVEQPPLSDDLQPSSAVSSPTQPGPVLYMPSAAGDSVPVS
Technique: RNA Bind-n-Seq
Form: RNA
Matrix: in vitro
Concentration: not given
Notes: RNA with constant flanks, human and mouse sites, ends assumed
Baseline: input RNA pool
Direction: higher = stronger binding
Constant ends, left off below: GGGAGUUCUACAGUCCGACGAUC … CAACAGAGGAUUGAGCAUCA
Strand | bound/input enrichment [ratio]
GCAAAGCAAAUUUAUGAAGAAUUCAUCCAGACAGAGGCCCCUAAAGAGGUGAACAUUGACCACUUCACUAAAGACAUCACCAUGAAGAACCUGGUGGAACCGUCUCCUCGCAGCUUUGAC | 0.239
CAAGAUUGGGAAUCCGAAAGAGAGUUAUGUUUGGAAAACCUCCGCCAGGAAUUGUCGUUGAAGCAUCAGUCGGAGAUGGAGGGUUUGCAGAGCCAGUUUCAGAAGGAAUUGUCAGAACAG | 0.216
UAGGAGUGCAGCCAGAUGGUUUAGACAAAUAACCUCUGCCUGCCAGCCGUUGGGGUGAUGAUUAGAAUGUUAUUGAAGAUAGUGGUUAUGGUUGGGGCUUAUAAUGCCGACUGCAUUUGA | 4.76
AAUAGGCUGCCCAUAUAAGUCAAAGGAAAAUGAGCCCAGGCCUUGCUAUGAAGCAGUGUGUGAAUGGACAAUGUUGAAUGAAUGUCUGGCUCAGUGAUGGAGAGCCAGGUUCAUCUUUGA | 0.186
AUCUUUUGGUUAUUCUAAGCCCUUUGCCAUCAAUGAUCAUAUCAAUUGGCAGUGACUUUGUAUAGAGAAUUUAAGUAGAAAAGUUGCAGAUGUAUUGACUGUACCACAGACACAAUAUGU | 1.35
GGGCCGGAACCGGAAUCAUGGUUGCUUGGUUUGACUUCAAGCCAUUUAUGAGACAUUAAACCUGAAAAUGGAAAACAGAGUAAGAUCCUCCUUAGAAGCUCUGAGCUGUUGCUAAUGGCA | 0.154
CAGAAUGUUAACAGUGUAACUAUAUUUGUUCAGUCGAAUCAAGGUGAAGAGGAAACAACAAGAAUUUCAUAUUUUACUUUUAUUGGUACUCCAGUCCAGGCAACAAAUAUGAAUGACUUC | 0.159
UCAGACUGUACCAUUGUGAUUUAGACCUAUCUAAAAUUCAGAGCAUAUCAUCUGGGCUACCUCAGGGUCACCACCCAUGUAUUGGGCUUAGUCAGGAUUGACAGAUACAUUCUCAGCUGG | 0.219

Study 2
Target: CCNB1, cyclin fold, Cln2 fusion (human)
Technique: yeast growth competition, sequencing
Matrix: yeast
Notes: strong parent motif
Baseline: not given
Direction: higher = stronger binding
Starting sequence: MASTL docking peptide (human); PMIAKNLMCELDE
Variant | normalised enrichment score
M8I | 0.998
M8F | 1.46
M8G | 0.384
M8S | 0.667
A4I | 2.7
L11T | -0.28
M2G | 2.76
I3H | 0.00259
M2E | 2.15
N6D | 1.32
L7W | -0.00559
D12N | 1.48
D12R | 0.411
N6Y | 0.181
E10A | 0.795
M8H | 0.104
L11I | 0.76
K5M | 0.633

Study 3
Target: ABI1, truncated, D143A, DHFR fusion (Arabidopsis thaliana)
Technique: DHFR PCA, deep sequencing
Matrix: yeast
Notes: methotrexate growth selection, single substitutions
Added: (+)-ABA 710 µM
Baseline: wild-type fitted maximum
Direction: higher = stronger binding
Starting sequence: PYL1, truncated, DHFR fusion (Arabidopsis thaliana); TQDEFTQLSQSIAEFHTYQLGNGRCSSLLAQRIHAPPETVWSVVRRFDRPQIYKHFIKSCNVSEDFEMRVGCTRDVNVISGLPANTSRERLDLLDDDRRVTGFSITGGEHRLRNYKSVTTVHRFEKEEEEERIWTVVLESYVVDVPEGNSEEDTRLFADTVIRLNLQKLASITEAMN; partner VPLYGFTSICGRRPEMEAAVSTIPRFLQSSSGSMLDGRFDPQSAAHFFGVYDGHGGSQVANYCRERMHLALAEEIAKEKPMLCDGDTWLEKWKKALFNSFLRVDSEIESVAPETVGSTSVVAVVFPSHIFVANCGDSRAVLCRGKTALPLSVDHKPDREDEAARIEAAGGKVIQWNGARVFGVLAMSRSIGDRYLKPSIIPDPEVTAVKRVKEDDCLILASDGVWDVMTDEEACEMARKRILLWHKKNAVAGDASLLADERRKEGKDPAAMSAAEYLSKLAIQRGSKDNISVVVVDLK
Variant | relative binding score [%]
S9V | 96.7
E128G | 112
H34D | 105
Y115S | 6.53
W134Y | 116
V143N | -5.65
N114R | 94.2
S9E | 108
G71R | 61.1
N177E | 80.1
E125W | 96.1
L169F | 10.6
D159L | 27.1

Further values, each from its own experiment
Substance | target | assay | system | conditions | how to read | measurement | value
PhoQ, residues 284 288 289 292 302 303 SMMNNA | PhoP, residues 12 14 15 18 19 FWNTL (Escherichia coli, UniProt P23836) | Sort-seq, measured: YFP reporter | E. coli | PhoQ-PhoP variant library, added: 10 µM Mg2+ | baseline: high Mg2+ state, higher = stronger signaling | fold induction | 7.49

Some of these lines once more (study 1):
Strand | bound/input enrichment [ratio]
UAGGAGUGCAGCCAGAUGGUUUAGACAAAUAACCUCUGCCUGCCAGCCGUUGGGGUGAUGAUUAGAAUGUUAUUGAAGAUAGUGGUUAUGGUUGGGGCUUAUAAUGCCGACUGCAUUUGA | 4.76
AAUAGGCUGCCCAUAUAAGUCAAAGGAAAAUGAGCCCAGGCCUUGCUAUGAAGCAGUGUGUGAAUGGACAAUGUUGAAUGAAUGUCUGGCUCAGUGAUGGAGAGCCAGGUUCAUCUUUGA | 0.186
AUCUUUUGGUUAUUCUAAGCCCUUUGCCAUCAAUGAUCAUAUCAAUUGGCAGUGACUUUGUAUAGAGAAUUUAAGUAGAAAAGUUGCAGAUGUAUUGACUGUACCACAGACACAAUAUGU | 1.35
GGGCCGGAACCGGAAUCAUGGUUGCUUGGUUUGACUUCAAGCCAUUUAUGAGACAUUAAACCUGAAAAUGGAAAACAGAGUAAGAUCCUCCUUAGAAGCUCUGAGCUGUUGCUAAUGGCA | 0.154
CAGAAUGUUAACAGUGUAACUAUAUUUGUUCAGUCGAAUCAAGGUGAAGAGGAAACAACAAGAAUUUCAUAUUUUACUUUUAUUGGUACUCCAGUCCAGGCAACAAAUAUGAAUGACUUC | 0.159
UCAGACUGUACCAUUGUGAUUUAGACCUAUCUAAAAUUCAGAGCAUAUCAUCUGGGCUACCUCAGGGUCACCACCCAUGUAUUGGGCUUAGUCAGGAUUGACAGAUACAUUCUCAGCUGG | 0.219
